Published values pooled from the literature.
Every numbered part comes from another study and shows a few of its results, in no order. Values joined by “and” are separate records of one study, mostly repeats; a detail may differ.
UniProt Q8TBX8, sequence (whole entry, looked up): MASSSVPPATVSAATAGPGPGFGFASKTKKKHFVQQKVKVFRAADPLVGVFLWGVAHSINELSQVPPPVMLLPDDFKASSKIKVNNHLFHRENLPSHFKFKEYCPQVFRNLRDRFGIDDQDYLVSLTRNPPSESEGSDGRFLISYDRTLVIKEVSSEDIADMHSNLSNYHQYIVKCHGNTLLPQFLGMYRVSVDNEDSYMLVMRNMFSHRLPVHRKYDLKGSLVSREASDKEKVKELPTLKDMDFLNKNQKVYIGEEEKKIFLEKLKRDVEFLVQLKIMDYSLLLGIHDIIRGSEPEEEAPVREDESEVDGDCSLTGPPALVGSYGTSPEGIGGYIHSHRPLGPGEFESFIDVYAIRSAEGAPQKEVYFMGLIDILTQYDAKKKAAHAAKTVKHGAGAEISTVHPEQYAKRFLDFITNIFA
UniProt Q13555, sequence (whole entry, looked up): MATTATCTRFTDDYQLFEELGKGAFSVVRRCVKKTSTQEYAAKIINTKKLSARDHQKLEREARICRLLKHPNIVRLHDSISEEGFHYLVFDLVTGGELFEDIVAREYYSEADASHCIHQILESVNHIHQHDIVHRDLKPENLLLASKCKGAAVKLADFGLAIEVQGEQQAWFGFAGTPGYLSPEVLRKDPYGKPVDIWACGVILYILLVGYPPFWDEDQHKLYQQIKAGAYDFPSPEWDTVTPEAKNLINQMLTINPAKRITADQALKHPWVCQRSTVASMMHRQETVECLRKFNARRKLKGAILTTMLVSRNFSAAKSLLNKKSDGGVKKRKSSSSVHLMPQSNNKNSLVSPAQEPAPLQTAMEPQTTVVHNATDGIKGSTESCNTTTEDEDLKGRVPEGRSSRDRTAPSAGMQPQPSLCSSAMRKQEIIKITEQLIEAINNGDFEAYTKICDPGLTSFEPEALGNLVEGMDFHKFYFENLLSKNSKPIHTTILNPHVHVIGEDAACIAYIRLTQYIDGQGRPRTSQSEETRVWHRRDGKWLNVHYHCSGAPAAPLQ
UniProt P22607, sequence (whole entry, looked up): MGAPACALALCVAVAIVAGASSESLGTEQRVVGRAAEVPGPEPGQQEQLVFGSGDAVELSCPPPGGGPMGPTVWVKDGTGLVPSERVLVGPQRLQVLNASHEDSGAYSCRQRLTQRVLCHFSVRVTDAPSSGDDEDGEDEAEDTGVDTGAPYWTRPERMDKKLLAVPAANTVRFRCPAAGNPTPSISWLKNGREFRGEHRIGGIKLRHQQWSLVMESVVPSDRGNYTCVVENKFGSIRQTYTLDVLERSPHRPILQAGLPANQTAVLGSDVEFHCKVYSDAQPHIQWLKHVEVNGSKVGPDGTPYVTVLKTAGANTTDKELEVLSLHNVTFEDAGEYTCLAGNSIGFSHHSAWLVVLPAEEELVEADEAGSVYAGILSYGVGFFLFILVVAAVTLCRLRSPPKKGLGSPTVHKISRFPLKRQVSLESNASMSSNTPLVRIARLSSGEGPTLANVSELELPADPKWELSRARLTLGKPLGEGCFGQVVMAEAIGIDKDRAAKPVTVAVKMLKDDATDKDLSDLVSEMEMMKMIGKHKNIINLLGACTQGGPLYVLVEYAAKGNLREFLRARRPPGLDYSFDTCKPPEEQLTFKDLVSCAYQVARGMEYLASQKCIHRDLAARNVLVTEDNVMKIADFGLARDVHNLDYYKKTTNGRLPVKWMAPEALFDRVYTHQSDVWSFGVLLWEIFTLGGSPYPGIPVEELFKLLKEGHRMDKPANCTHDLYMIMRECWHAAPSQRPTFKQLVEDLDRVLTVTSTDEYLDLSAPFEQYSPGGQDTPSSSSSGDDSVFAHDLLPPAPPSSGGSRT
UniProt Q86UE8, sequence (whole entry, looked up): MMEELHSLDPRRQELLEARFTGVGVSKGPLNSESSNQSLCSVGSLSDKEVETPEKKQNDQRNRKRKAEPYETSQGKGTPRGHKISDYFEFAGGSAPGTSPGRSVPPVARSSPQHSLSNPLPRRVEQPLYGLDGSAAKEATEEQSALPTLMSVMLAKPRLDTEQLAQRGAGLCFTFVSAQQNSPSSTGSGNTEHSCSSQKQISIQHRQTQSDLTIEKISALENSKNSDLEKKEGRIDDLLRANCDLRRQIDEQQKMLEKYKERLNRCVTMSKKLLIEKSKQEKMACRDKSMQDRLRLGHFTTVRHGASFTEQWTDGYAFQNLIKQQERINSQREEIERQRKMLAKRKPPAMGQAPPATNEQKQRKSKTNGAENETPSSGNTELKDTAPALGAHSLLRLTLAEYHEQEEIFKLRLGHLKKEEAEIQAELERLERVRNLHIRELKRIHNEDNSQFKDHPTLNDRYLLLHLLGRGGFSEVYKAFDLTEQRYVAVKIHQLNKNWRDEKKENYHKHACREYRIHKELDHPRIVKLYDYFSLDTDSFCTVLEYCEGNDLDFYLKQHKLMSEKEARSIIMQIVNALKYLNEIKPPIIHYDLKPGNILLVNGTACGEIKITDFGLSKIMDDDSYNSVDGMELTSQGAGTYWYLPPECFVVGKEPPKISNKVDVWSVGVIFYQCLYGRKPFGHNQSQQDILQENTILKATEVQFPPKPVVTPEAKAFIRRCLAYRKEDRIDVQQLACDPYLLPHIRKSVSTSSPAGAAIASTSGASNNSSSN
UniProt Q15835, sequence (whole entry, looked up): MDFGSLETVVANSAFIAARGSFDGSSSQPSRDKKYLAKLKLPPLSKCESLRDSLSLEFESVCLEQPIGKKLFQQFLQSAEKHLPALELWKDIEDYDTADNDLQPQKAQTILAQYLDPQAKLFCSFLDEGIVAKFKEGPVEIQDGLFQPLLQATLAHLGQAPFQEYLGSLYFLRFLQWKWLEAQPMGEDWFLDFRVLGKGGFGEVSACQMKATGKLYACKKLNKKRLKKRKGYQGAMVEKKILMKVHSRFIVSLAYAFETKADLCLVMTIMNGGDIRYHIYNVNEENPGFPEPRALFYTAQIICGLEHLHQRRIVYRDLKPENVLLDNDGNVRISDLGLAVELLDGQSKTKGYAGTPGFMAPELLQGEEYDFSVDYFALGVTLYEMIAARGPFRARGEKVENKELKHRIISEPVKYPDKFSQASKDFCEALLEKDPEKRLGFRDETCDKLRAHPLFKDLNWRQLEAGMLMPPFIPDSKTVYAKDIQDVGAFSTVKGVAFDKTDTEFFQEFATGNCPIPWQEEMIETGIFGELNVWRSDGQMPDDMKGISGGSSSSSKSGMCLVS
UniProt Q92772, sequence (whole entry, looked up): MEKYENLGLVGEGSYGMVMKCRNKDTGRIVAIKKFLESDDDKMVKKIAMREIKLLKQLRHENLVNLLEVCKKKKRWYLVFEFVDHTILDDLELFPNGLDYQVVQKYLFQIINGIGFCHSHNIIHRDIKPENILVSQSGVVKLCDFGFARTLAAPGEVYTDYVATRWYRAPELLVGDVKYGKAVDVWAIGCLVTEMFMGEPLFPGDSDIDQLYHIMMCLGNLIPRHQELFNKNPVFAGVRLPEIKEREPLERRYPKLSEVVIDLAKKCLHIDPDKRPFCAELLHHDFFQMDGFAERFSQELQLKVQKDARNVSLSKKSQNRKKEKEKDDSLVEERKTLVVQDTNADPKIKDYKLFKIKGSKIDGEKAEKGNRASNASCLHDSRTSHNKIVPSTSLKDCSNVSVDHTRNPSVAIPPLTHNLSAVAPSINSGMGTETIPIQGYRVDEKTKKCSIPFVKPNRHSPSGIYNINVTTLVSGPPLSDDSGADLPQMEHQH
UniProt Q9P0L2, sequence (whole entry, looked up): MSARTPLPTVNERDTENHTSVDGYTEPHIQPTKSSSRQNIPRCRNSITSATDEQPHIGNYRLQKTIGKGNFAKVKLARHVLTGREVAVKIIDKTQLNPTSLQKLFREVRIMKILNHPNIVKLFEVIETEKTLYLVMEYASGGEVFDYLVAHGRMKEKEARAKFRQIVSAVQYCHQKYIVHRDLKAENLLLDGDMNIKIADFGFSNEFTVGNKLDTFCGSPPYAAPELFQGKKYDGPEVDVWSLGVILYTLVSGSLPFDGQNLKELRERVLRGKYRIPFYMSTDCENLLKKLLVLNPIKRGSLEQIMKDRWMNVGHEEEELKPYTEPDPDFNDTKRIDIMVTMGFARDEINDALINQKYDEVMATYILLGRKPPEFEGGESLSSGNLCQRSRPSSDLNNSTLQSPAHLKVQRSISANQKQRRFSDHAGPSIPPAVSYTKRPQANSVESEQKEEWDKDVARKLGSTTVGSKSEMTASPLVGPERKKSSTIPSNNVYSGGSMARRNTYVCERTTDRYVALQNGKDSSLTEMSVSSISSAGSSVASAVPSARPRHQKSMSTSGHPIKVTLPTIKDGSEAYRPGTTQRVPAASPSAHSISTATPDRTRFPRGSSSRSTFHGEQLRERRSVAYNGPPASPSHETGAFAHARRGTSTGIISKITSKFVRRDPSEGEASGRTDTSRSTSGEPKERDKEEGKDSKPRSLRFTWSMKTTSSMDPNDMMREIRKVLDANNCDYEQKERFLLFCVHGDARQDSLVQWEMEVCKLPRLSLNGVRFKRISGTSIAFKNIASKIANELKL

Series 1
Species: human
Sample: microsomes or S9
Concentration: 2 µM
Time: 0.5 h
The remaining compound of `Cc1ccc(S(=O)(=O)c2c(O)c3sc4cccc(Cl)c4c3[nH]c2=O)cc1` is reported as 77.5%.
`CCCNC(=O)Nc1ccccc1S(=O)(=O)NCCC` gave a remaining compound of over 99%.
The remaining compound of `O=c1[nH]c2cc(S(=O)(=O)N3CC[C@H]4[C@H](C3)OCc3cnnn34)ccc2o1` is reported as 84.3%.
`O=C1CC2(CCN(C(=O)CSC34CC5CC(CC(C5)C3)C4)CC2)CN1` has a remaining compound of 2.54%.
For `CCOc1cc2c(-c3ccccc3)c(C)oc2cc1C(=O)c1ccccc1`, the remaining compound was 24.2%.
The remaining compound of `O=C(C1=COCCO1)N(CCn1cccn1)c1nc2c(Cl)cccc2s1` is reported as 25%.
For `Fc1ccc(-c2ccnc3nc(-c4ccncc4)nn23)cc1`, the remaining compound was over 99%.
`CCn1nccc1CN(C)S(=O)(=O)c1ccc(Br)s1` gave a remaining compound of 44%.
For `CN1C(=O)c2[nH]nc(-c3ccccc3)c2C1c1ccco1` (stereo not shown), the remaining compound was 61.7%.

Series 2
Target: G protein-coupled receptor kinase 5 (GRK5, Homo sapiens, UniProt P34947)
UniProt P34947, sequence (whole entry, looked up): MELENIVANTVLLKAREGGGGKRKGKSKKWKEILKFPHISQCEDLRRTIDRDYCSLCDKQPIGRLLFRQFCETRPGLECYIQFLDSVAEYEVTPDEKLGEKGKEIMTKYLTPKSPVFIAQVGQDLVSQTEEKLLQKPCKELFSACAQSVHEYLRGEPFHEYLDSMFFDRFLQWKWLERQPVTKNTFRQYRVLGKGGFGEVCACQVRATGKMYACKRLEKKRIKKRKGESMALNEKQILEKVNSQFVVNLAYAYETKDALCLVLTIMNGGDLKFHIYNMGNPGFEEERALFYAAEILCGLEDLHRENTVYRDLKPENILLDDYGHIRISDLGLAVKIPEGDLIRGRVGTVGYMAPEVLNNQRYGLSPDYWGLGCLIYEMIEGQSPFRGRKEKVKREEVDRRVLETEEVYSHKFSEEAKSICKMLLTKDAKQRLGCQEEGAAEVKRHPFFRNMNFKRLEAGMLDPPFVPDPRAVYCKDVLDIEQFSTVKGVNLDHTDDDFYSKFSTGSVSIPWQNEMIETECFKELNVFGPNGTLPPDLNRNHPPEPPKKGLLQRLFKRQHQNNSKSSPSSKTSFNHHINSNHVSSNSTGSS
Observed: enzyme activity
Mode: inhibitor
Concentration: 0.5 µM
Reference: control
The remaining activity of `COc1cc2ncnc(Nc3ccc(F)c(Cl)c3)c2cc1OCCCN1CCOCC1` is reported as 94.9%.
`O=c1c2ccccc2[nH]c(=S)n1CCN1CCC(=C(c2ccc(F)cc2)c2ccc(F)cc2)CC1` has a remaining activity of 103%.
`Nc1ncnc2n[nH]c(Nc3ccc(F)cc3)c12` gave a remaining activity of 97.1%.
With `NCCNc1ncc(C(N)=O)c(Nc2cccc(C(F)(F)F)c2)n1` the remaining activity was 92.1%.
With `O=C(CCCc1ccc(-c2ccccc2F)cc1)Nc1ccc(O)cc1` the remaining activity was 98.4%.
`COc1ccc(OC)c2c(=S)c3ccccc3[nH]c12` has a remaining activity of 108%.
For `O=C(Nc1cccc(Nc2cc(Nc3cccc(C(F)(F)F)c3)ncn2)c1)C1CC1`, the remaining activity was 109%.
The remaining activity of `Oc1ccc(-c2nc(-c3ccncc3)c(-c3ccc(F)cc3)[nH]2)cc1` is reported as 104%.
For `O=S(=O)(c1cccc2cnccc12)N1CCCNCC1`, the remaining activity was 109%.
The remaining activity of `N#CC(C#N)=C(N)/C(C#N)=C/c1ccc(O)cc1` is reported as 113%.
The remaining activity of `Cc1ccc(Nc2nccc(N(C)c3ccc4c(C)n(C)nc4c3)n2)cc1S(N)(=O)=O` is reported as 99.6%.
For `Cn1c2ccccc2c2c3c(c4c5ccccc5n(CCC#N)c4c21)CNC3=O`, the remaining activity was 89.1%.
With `CO[C@H]1C[C@@H]2CC[C@@H](C)[C@@](O)(O2)C(=O)C(=O)N2CCCC[C@H]2C(=O)O[C@H]([C@H](C)C[C@@H]2CC[C@@H](O)[C@H](OC)C2)CC(=O)[C@H](C)/C=C(\C)[C@@H](O)[C@@H](OC)C(=O)[C@H](C)C[C@H](C)/C=C/C=C/C=C/1C` the remaining activity was 98.7%.
With `COc1cc2ncnc(Nc3ccc(Oc4ccccc4)cc3)c2cc1OC` the remaining activity was 97.4%.

Series 3
SMILES: Nc1cnc(N2CCc3cc(S(=O)(=O)Nc4c(F)cc(Cl)cc4F)cc(N4CCCC4=O)c32)nc1
Observed: cell-free assay
Method: competition with immobilised ligand
Concentration: 1 µM
The remaining binding was 85% (CDKL2 (Homo sapiens, UniProt Q92772)).
The remaining binding was 79% (TLK2 (Homo sapiens, UniProt Q86UE8)).
RIOK1 (Homo sapiens, UniProt Q9BRS2) — remaining binding: 100%.
It gave 100% for remaining binding (FGFR3 (Homo sapiens, UniProt P22607)).
For GRK1 (Homo sapiens, UniProt Q15835): remaining binding read 100%.
Tyrosine-protein kinase ABL1, phosphorylated (ABL1, Homo sapiens, UniProt P00519, H396P) — remaining binding: 86%.
It gave 100% for remaining binding (CAMK2G (Homo sapiens, UniProt Q13555)).
The remaining binding was 76% (MARK1 (Homo sapiens, UniProt Q9P0L2)).
For KIT (Homo sapiens, UniProt P10721, V559D): remaining binding read 100%.
PIP4K2C (Homo sapiens, UniProt Q8TBX8) — remaining binding: 100%.

Series 4
SMILES: CC(=O)N[C@@H](Cc1c[nH]c2ccccc12)C(=O)N[C@@H](CCC(=O)C=[N+]=[N-])C(=O)OC(C)C
Route: subcutaneous
Dose: 0.3 mg/kg/day DON equivalent
Time: 5 days
Reading: higher = more metabolite
The “metabolite peak area” was 84600 a.u. and 251000 a.u. and 96100 a.u. and 111000 a.u. and 50400 a.u. and 150000 a.u. (UPLC-MS/MS, item: dAMP 3'; C57BL/6 CES1-/- mice, EL4 tumour).
UPLC-MS/MS, item: tyrosine; C57BL/6 CES1-/- mice, EL4 tumour — “metabolite peak area”: 5.05e+08 a.u. and 5.78e+08 a.u. and 6.52e+08 a.u. and 5.79e+08 a.u. and 7.04e+08 a.u. and 7.12e+08 a.u.
It gave 2.71e+07 a.u. and 4.57e+07 a.u. and 3.04e+07 a.u. and 4.06e+07 a.u. and 5.11e+07 a.u. and 4.43e+07 a.u. for “metabolite peak area” (UPLC-MS/MS metabolomics, item: GABA; EL4, C57BL/6 CES1-/- mice, EL4 tumour, tumour).
It gave 1.3e+08 a.u. and 1.44e+08 a.u. and 1.04e+08 a.u. and 9.52e+07 a.u. and 1.1e+08 a.u. and 1.22e+08 a.u. for “metabolite peak area” (UPLC-MS/MS, item: urea; C57BL/6 CES1-/- mice, EL4 tumour).
